Published values from different studies.
A part holds a random share of what one study measured. Values joined by “and” are separate records of one study, mostly repeats; a detail may differ.

Sample 1 — cell line: U-87 MG; concentration: concentration not given; reference: DMSO; measurement: log2 fold change
Compound: CCN1/C(=C/C=C2\CCCC(/C=C/C3=[N+](CC)c4ccccc4C3(C)C)=C2NCCCCCCCCN2CCC(Nc3nc4ccccc4n3Cc3ccc(F)cc3)CC2)C(C)(C)c2ccccc21
refers to: ECT2 mRNA: -1.38
refers to: SGCG mRNA: 2.19
refers to: ATXN1 mRNA: 0.935
refers to: SCIN mRNA: -2.61
refers to: CKAP2L mRNA: -1.5
refers to: SYT7 mRNA: 2.3
refers to: EAF2 mRNA: 1.9
refers to: RAB26 mRNA: -2.73

Sample 2 — cell line: NCI-H292; technique: CellTiter-Glo; time: 72 h; measurement: viability
Structure (SMILES): CCONC(=O)/C=C/CNCCCCN1c2cc(Cl)ccc2CCc2cnn(C)c21.O=C(O)/C=C\C(=O)O
5 µM: 68.7% and 57.4% and 59%
0.005 µM: 105% and 91.5% and 98.2%
0.05 µM: 98.4% and 100% and 93.7%
0.5 µM: 92.1% and 98.4% and 105%
50 µM: -0.97% and -0.923% and -1.02%

Sample 3 — cell line: HCC1569; technique: in-cell western; refers to: CDK1 phospho-Thr14; measurement: pCDK1 (Thr14) level
Compound: Cc1ccc(O)c(C)c1-c1cnc2[nH]c(-c3cnc(N4CCC(CN5CCN(c6ccc7c(c6F)CN(C6CCC(=O)NC6=O)C7=O)CC5)CC4)nc3)cc2c1C#N (stereo not shown)
370.37 nM: 125 RLU and 117 RLU
13.72 nM: 16 RLU and 11 RLU
123.46 nM: 74.9 RLU and 87.4 RLU
1111.11 nM: 125 RLU and 140 RLU
10000 nM: 144 RLU and 139 RLU
41.15 nM: 1.42 RLU and 14.7 RLU
3333.33 nM: 146 RLU and 141 RLU

Other studies, line by line
Cn1cc(-c2cccc(CN3CCC4(CC3)COc3c4ccc4c3CN([C@H]3CCC(=O)NC3=O)C4=O)c2)cn1 — IL-2 level (Jurkat; 1000 nM, 24 h, with: CD3/CD28 beads, 1:4): 148 pg/mL and 138 pg/mL and 173 pg/mL
Cc1nc(C)c(C=[N+]([O-])C(C)(C)C)nc1C — striatal dopamine content (HPLC-ECD; MPTP mouse model, striatum; 10 mg/kg): 4.48 ng/mg tissue and 4.47 ng/mg tissue and 4.8 ng/mg tissue and 3.93 ng/mg tissue and 5.41 ng/mg tissue and 5.28 ng/mg tissue and 4.46 ng/mg tissue
